Experimental data from different studies.
± marks the error that the study gave.

Structure (SMILES) | test | system | setting | scale | quantity | value
CCC(C)n1ncn(-c2ccc(N3CCN(c4ccc(OCC5COC(Cn6cncn6)(c6ccc(Cl)cc6Cl)O5)cc4)CC3)cc2)c1=O (centres unmarked) | – | nude mouse, medulloblastoma allograft | oral, 75 mg/kg twice daily, alone or with arsenic trioxide | – | body weight | not toxic
COc1ccc(-c2ccc3c(N4CCOC[C@@H]4C)nc(N4CCOC[C@@H]4C)nc3n2)cc1CO | – | human patients | oral, dose not given, related adverse events | – | incidence of AST increase | 22%
CN[C@@](C)(C[18F])C(=O)O | – | mouse, blood | 30 min, tumour-bearing | – | tracer uptake | 1.7 %ID/g
CC[C@@]1(O)C(=O)OCc2c1cc1n(c2=O)Cc2cc3c(CN(C)C)c(O)ccc3nc2-1 | – | human patients, plasma | oral, 8 mg weekly, MTD arm, weekly dosing, with: pazopanib | relative to: with pazopanib over alone | half-life ratio | 0.84
COc1ccc(OC)c(C=CC(=O)C=Cc2cc(OC)ccc2OC)c1 | fish embryo acute toxicity test | zebrafish (Danio rerio) embryos wild-type | immersion, up to 96 h, 0.1% DMSO | – | LC50 | < 200 µM
O[C@H]1CCCN[C@@H]1CCCn1cnc2c(Cl)c(Cl)ccc21 | – | human, plasma | oral, 600 mg, single dose, healthy volunteers | – | half-life | 9.9 h
CCCCCOc1ccc(-c2cc(-c3ccc(C(=O)N[C@H]4C[C@@H](O)[C@@H](O)NC(=O)[C@@H]5[C@@H](O)[C@@H](C)CN5C(=O)[C@H]([C@H](O)CC(N)=O)NC(=O)[C@H]([C@H](O)[C@@H](O)c5ccc(O)c(OS(=O)(=O)O)c5)NC(=O)[C@@H]5C[C@@H](O)CN5C(=O)[C@H]([C@@H](C)O)NC4=O)cc3)no2)cc1 | – | young infants at least 1000 g, plasma | intravenous infusion, 7 mg/kg/day, day 4, median, 1 h infusion, repeat dosing | – | half-life | 11.3 h
O=c1[nH]c(=O)[nH]c(=O)[nH]1 | – | CD IGS rat, female, non-pregnant, serum | oral, 1000 mg/kg/day, 10 days, with rectangular renal crystals | – | serum concentration | > 54000 ng/mL
CN[C@H](CC(C)C)C(=O)N[C@H]1C(=O)N[C@@H](CC(N)=O)C(=O)N[C@H]2C(=O)N[C@H]3C(=O)N[C@H](C(=O)N[C@H](C(=O)O)c4cc(O)cc(O)c4-c4cc3ccc4O)[C@H](O)c3ccc(c(Cl)c3)Oc3cc2cc(c3O[C@@H]2O[C@H](CO)[C@@H](O)[C@H](O)[C@H]2O[C@H]2C[C@](C)(N)[C@H](O)[C@H](C)O2)Oc2ccc(cc2Cl)[C@H]1O | HPLC-MS/MS | Wistar rat, serum | intravenous bolus, 1 mg/kg, 10 to 90 min | – | AUC | 1.77 ± 0.417 µg·h/mL
C[C@@H](O)[C@H](NC(=O)[C@H](Cc1ccc(O)cc1)NC(=O)[C@@H](NC(=O)[C@H](CCC(N)=O)NC(=O)CN)[C@@H](C)O)C(=O)N[C@@H](CO)C(=O)NCC(=O)O | – | rat blood | concentration not given, 25 °C, with: protease inhibitors | relative to: no inhibitor | half-life change | no effect
COc1ccc(C[C@@H]2NC(=O)[C@H]([C@@H](C)O)NC(=O)[C@@H]3[C@@H]4CCN3C(=O)[C@@H]3Cc5cn(c6ccc(F)cc56)CCCCCCN(Cc5ccc(cc5)CCNC(=O)[C@]5(C)CCCN5C2=O)C(=O)CCC(=O)N[C@@H](C)C(=O)N[C@H](CNC(=O)CCCCC[N+](C)(C)C)C(=O)N[C@@H](Cc2cccc(c2)CNC(=O)CO4)C(=O)N3)cc1 | – | fasted healthy humans, plasma | oral, 35 mg single dose, with 1800 mg Labrasol, geometric mean | – | CL/F | 716 mL/min
Cc1cc(C(C#N)c2ccc(Cl)cc2)c(Cl)cc1NC(=O)c1cc(I)cc(I)c1O (centres unmarked) | – | parasitized lambs, plasma | subcutaneous, 5 mg/kg, with: moxidectin 0.2 mg/kg subcutaneous | – | AUC(0-LOQ) | 39500 ± 7820 µg·h/mL
CCc1cccc(C)c1N(C(=O)CCl)C(C)COC (centres unmarked) | LC-MS/MS | herbicide solution | 2 h, 23 °C, with: 254 nm UV exposure | – | remaining amount | 51.7 ± 28.7%
CC(C)C[C@@H](NC(=O)[C@@H](Cc1ccccc1)NC(=O)[C@H](N)Cc1ccccc1)C(=O)N[C@H](CCCCN)C(=O)N1CCC(N)(C(=O)O)CC1 | item: total radioactivity | human subjects on haemodialysis | intravenous, time not given | – | total dose recovery, urine, feces and dialysate | 83.8%
CC(=O)N[C@H](CCCCNC(=O)C(C)F)C(=O)N[C@@H](CS)C(=O)N[C@@H](CS)C(=O)N[C@@H](CCC(=O)O)C(=O)N[C@@H](Cc1c[nH]cn1)C(=O)N[C@H](Cc1ccccc1)C(=O)N[C@@H](CCCNC(=N)N)C(=O)N[C@@H](Cc1c[nH]c2ccccc12)C(=O)N[C@@H](CS)C(=O)N[C@@H](CCCNC(=N)N)C(=O)N1CCC[C@H]1C(=O)N[C@H](C(N)=O)C(C)C (some centres unmarked) [fluorine-18 labelled] | – | C57BL/6 mice, male, B16-F10 tumour, spleen | intravenous, 4 h | – | tissue uptake | 0.2 ± 0.04 %ID/g
CC(C)OC(=O)[C@H](CCC(=O)C=[N+]=[N-])NC(=O)OC(OC(=O)C(C)(C)C)C(C)C (mixture of isomers) | – | human plasma | 10 µM, 60 min, 37 °C | – | remaining compound | 100 ± 7%
C[C@H]1CO[C@@H]2Cn3cc(C(=O)NCc4ccc(F)cc4F)c(=O)c(O)c3C(=O)N12 | – | Indian rhesus macaque, female, Depo-Provera-treated, plasma | intramuscular, 50 mg/kg, 14 weeks after first dose, at first viral RNA detection | – | plasma concentration | 370 ng/mL
CC[C@H](C)[C@@H]1NC(=O)[C@H]([C@@H](C)O)NC(=O)[C@@H](NC(=O)[C@H](Cc2ccccc2)NC(=O)[C@H](C)NC(=O)[C@H](CCCCN)NC(=O)[C@H](CCCCN)NC(=O)[C@H](C)NC(=O)[C@@H](NC(=O)[C@H](CCCCN)NC(=O)[C@H](C)NC(=O)[C@H](C)NC(=O)[C@@H](NC(=O)CNC(=O)[C@H](C)NC(=O)[C@@H](NC(=O)[C@H](CCCCN)NC(=O)[C@@H]2CCCN2C(=O)[C@H](Cc2ccccc2)NC(=O)[C@@H](N)Cc2ccccc2)C(C)C)C(C)C)C(C)C)CSSC[C@@H](C(=O)O)NC(=O)[C@H](CCCCN)NC(=O)[C@H](CCCCN)NC(=O)[C@H](CO)NC1=O | haemolysis | horse erythrocytes | 2 h, 37 °C | – | HC50 | > 128 µM
CSCC[C@@H]1NC(=O)[C@H](CC(=O)O)NC(=O)CNC(=O)[C@H](CCCNC(=N)N)NC(=O)[C@H](C)NC(=O)[C@H](CCC(=O)O)NC(=O)[C@H](CCCNC(=N)N)NC(=O)[C@@H]2CSSC[C@@H]3NC(=O)[C@H](CO)NC(=O)[C@H]([C@@H](C)O)NC(=O)[C@@H]4CCCN4C(=O)[C@H](C)NC(=O)[C@H](Cc4c[nH]c5ccccc45)NC(=O)[C@H](CC(=O)O)NC(=O)CNC(=O)[C@H](CCCNC(=N)N)NC(=O)CNC(=O)[C@H](CCC(N)=O)NC(=O)[C@@H]4CCCN4C(=O)[C@@H](NC(=O)CNC(=O)C(C)F)CSSC[C@H](NC(=O)CNC(=O)[C@H](C)NC(=O)[C@H](CC(C)C)NC(=O)[C@H](CSSC[C@@H](C(=O)NCC(N)=O)NC(=O)[C@H]([C@@H](C)O)NC(=O)[C@H](CCCNC(=N)N)NC(=O)[C@@H]4CCCN4C1=O)NC(=O)[C@H](CC(=O)O)NC(=O)[C@H](CO)NC(=O)[C@H](CC(=O)O)NC(=O)[C@H](CCC(N)=O)NC(=O)[C@H](CO)NC3=O)C(=O)N[C@@H](C(C)C)C(=O)N2 (some centres unmarked) [fluorine-18 labelled] | – | nude mice U-87 MG xenograft, blood | intravenous, 1 h | – | tissue uptake | 0.36 ± 0.07 %ID/g
Oc1ccc2ccc3cccc4ccc1c2c34 | HPLC-fluorescence | Wistar rat, male, colon | oral, 4 mg/kg PY, 24 h | – | tissue concentration | 13100 ± 796 ng/g
O=c1[nH]c(Cc2ccccn2)nc2c1cnn2C1CCOCC1 | – | male human, plasma | oral, 50 mg, single dose | – | Cmax | 613 nM
CC(C)C[C@@H]1NC(=O)[C@@H]2CSSC[C@@H](C(=O)NCC(N)=O)NC(=O)[C@H](Cc3ccccc3)NC(=O)CNC(=O)[C@H](CC(N)=O)NC(=O)[C@@H]3CCCN3C(=O)CNC(=O)[C@@H]3CSSC[C@H](NC(=O)[C@H](CO)NC(=O)[C@H]([C@@H](C)O)NC(=O)[C@@H]4CCCN4C(=O)[C@H](C)NC(=O)[C@H](Cc4c[nH]c5ccccc45)NC(=O)[C@H](CC(=O)O)NC(=O)CNC(=O)[C@H](CCCNC(=N)N)NC(=O)CNC(=O)[C@H](CCC(N)=O)NC(=O)[C@@H]4CCCN4C(=O)[C@@H](NC(=O)CNC(=O)c4ccc(F)cc4)CSSC[C@H](NC(=O)CNC(=O)[C@H](C)NC1=O)C(=O)N[C@@H](C(C)C)C(=O)N3)C(=O)N[C@@H](CO)C(=O)N[C@@H](CCC(N)=O)C(=O)N[C@@H](CC(=O)O)C(=O)N[C@@H](CO)C(=O)N[C@@H](CC(=O)O)C(=O)N2 [fluorine-18 labelled] | static microPET | nude mouse, U-87 MG xenograft, tumour | intravenous, 0.5 h, with: c(RGDyK) 330 µg co-injected | – | tumour uptake | 0.61 ± 0.14 %ID/g
[123I]c1cncc(OC[C@@H]2CCN2)c1 | SPECT | human, thalamus | intravenous bolus, 8.6 mCi | relative to: plasma | tissue/plasma ratio | 31.6

For quick reference, copied from above:
Structure (SMILES) | test | system | setting | scale | quantity | value
[123I]c1cncc(OC[C@@H]2CCN2)c1 | SPECT | human, thalamus | intravenous bolus, 8.6 mCi | relative to: plasma | tissue/plasma ratio | 31.6
Cc1cc(C(C#N)c2ccc(Cl)cc2)c(Cl)cc1NC(=O)c1cc(I)cc(I)c1O (centres unmarked) | – | parasitized lambs, plasma | subcutaneous, 5 mg/kg, with: moxidectin 0.2 mg/kg subcutaneous | – | AUC(0-LOQ) | 39500 ± 7820 µg·h/mL
Oc1ccc2ccc3cccc4ccc1c2c34 | HPLC-fluorescence | Wistar rat, male, colon | oral, 4 mg/kg PY, 24 h | – | tissue concentration | 13100 ± 796 ng/g
